Published values collected from several papers.
Each line is one published result; not all experiments were run side by side. “And” joins repeats or separate records; there may be more than shown. ± gives the spread as reported. In brackets after ≈: the same amount, converted by molar mass.

| Structure (SMILES) | test | system | setting | scale | quantity | result |
| --- | --- | --- | --- | --- | --- | --- |
| OC1(C(F)(F)F)CCN(c2nc(Nc3ccnc(C(F)(F)F)c3)nc(-c3cccc(C(F)(F)F)n3)n2)C1 (stereo not drawn) | – | Sprague-Dawley rat, plasma | oral, 20 mg/kg | – | MRT(0-inf) | 24.2 h |
| C=CC(=O)Nc1cc(Nc2nccc(-c3c[nH]c4ccccc34)n2)c(OC)cc1N(C)CCN(C)C | storage stability | human dried blood spot samples | 30 d, -80 °C, HQC level | relative to: nominal concentration | percentage recovery | 46.6% |
| CC(=O)N([O-])CCCCCNC(=O)CCC(=O)N([O-])CCCCCNC(=O)CCC(=O)N([O-])CCCCCN.[89Zr+4] | – | mouse, blood | 4 h | – | tracer uptake | 0.07 %ID/g |
| COc1cccc(OC)c1-c1cc(C(=O)NC2(C(=O)O)C3CC4CC(C3)CC2C4)nn1-c1ccc(C(=O)NCCNC(=O)[C@H](CCCCNC(=O)[C@H](CC(C)C)NC(=O)C2OC2C(=O)O)NC(=O)CN2CCN(CC(=O)[O-])CCN(CC(=O)[O-])CCN(CC(=O)[O-])CC2)cc1C(C)C.[177Lu+3] (mixture of isomers) | – | mouse, HT-29 xenograft | 24 h post injection, biodistribution | relative to: tumour over blood uptake | tumour-to-blood ratio | 11.2 |
| O=C(CN1CN(c2cccc(F)c2)C2(CCN(C(=O)c3cnc4[nH]ncc4c3)CC2)C1=O)NCC(F)(F)F | – | human liver microsomes | – | – | CLint | 32 µL/min/mg protein |
| O=C1c2sc(-c3ccc(N4CCC(CO)CC4)nc3F)nc2CCN1c1cccnc1 | LC-MS | cynomolgus monkey hepatocytes | 5 µM, 60 min | – | parent share of total peak area | 57.3% |
| O=c1c2ccccc2[se]n1CCCCCCn1[se]c2ccccc2c1=O | shake-flask, RP-HPLC | 10% PEG2000 solution | 24 h, 25 °C | – | solubility | 7 ± 2 µg/mL (≈ 14.6 µM) |
| C=C(NC(=O)c1csc(-c2nc3c(cc2O)-c2nc(cs2)C(=O)NC(C(C)O)C(=O)NC(=C(C)OC)c2nc(cs2)C(=O)NC2c4nc(cs4)C(=O)NC(COC(=O)c4c5c6c(cccc6n4O)COC(=O)C(OC4CC(C)(O)C(N(C)C)C(C)O4)C2OC5)c2nc-3cs2)n1)C(N)=O (stereo not drawn) | – | Sprague-Dawley rat, male, plasma | intravenous infusion, 6 mg/kg, multiple doses, day 7 | – | MRT(0-last) | 2.1 h |
| COc1cccc(OC)c1-c1cc(C(=O)NC2(C(=O)O)C3CC4CC(C3)CC2C4)nn1-c1ccc(C(=O)N(C)CCCN(C)C(=O)[C@H](CCCCNC(=O)[C@H](CC(C)C)NC(=O)C2OC2C(=O)O)NC(=O)CN2CCN(CC(=O)[O-])CCN(CC(=O)[O-])CCN(CC(=O)[O-])CC2)cc1C(C)C.[177Lu+3] (mixture of isomers) | – | mouse, HT-29 xenograft | 24 h post injection, biodistribution | relative to: tumour over bone uptake | tumour-to-bone ratio | 28.1 |
| C[C@](C(=O)NC1CCC(F)(F)CC1)(c1cncnc1)N(C(=O)[C@H](F)Cl)c1ccc(OC(F)(F)F)cc1 | – | human liver microsomes | concentration not given, pH 7.4 | – | CLint | 107 µL/min/mg |
| C=CC(=O)Nc1cc(Nc2nccc(-c3cn(C)c4ccccc34)n2)c(OC)cc1N(C)CCNC | storage stability | human dried blood spot samples | 30 d, -80 °C, LLOQ level | relative to: nominal concentration | percentage recovery | 13.3% |
| Fc1ccc(OCC2CN(Cc3ncc4ccccn34)CCC2(F)F)cc1 (stereo not drawn) | equilibrium dialysis | mouse plasma | – | – | fu | 0.0001 |
| CC1(C)OCCc2cc(C(=O)N3CCC(c4nc(-c5ccccc5)n[nH]4)CC3)ccc21 | PAMPA | artificial lipid membrane | 30 min | – | permeability | 886 ± 139 ×10⁻⁶ cm/s |
| O=C(CN1CCOCC1)Nc1ccc(C2CCCCC2)cc1 | liver microsome stability | mouse liver microsomes | 1 µM | – | hepatic clearance | 80 mL/min/kg |
| CCc1cnc(NC(=O)c2cc(S(=O)(=O)N3CCOCC3)ccc2N(C)C2CCCC2)s1 | – | mouse, serum | 10 mg/kg, 3 doses | – | Cholesterol | 102 mg/dL |
| CS(=O)(=O)c1ccc(-c2ccc(C3CCCCC3)cc2)cn1 | hepatocyte stability | cryopreserved rat hepatocytes | 1 µM | – | hepatic clearance | 38 mL/min/kg |
| COC1C=COC2(C)Oc3c(C)c(O)c4c(c3C2=O)C2=NC3(CCN(CC(C)C)CC3)NC2=C(NC(=O)C(C)=CC=CC(C)C(O)C(C)C(O)C(C)C(OC(=O)Nc2cccnn2)C1C)C4=O (stereo not drawn) | – | CD-1 mouse, plasma | oral, dose not given, efficacy dose | – | fAUC/MIC ratio | 163 |
| O=C(Nc1cnccc1-c1ccc([18F])cc1)c1ccnc(NC(=O)C2CC2)c1 | ex vivo biodistribution, gamma counting | transgenic mouse, GSK-3β overexpressing, early stage, right kidney | intravenous, 120 min | – | SUV | 0.25 |
| O=C(CN1CCCCC1)Nc1ccc([C@H]2[C@@H](F)[C@@H](F)C[C@@H](F)[C@H]2F)cc1 | – | cryopreserved human hepatocytes | 1 µM | – | hepatic clearance | 9.9 mL/min/kg |
| CCC1CNC(CC)CN(C(C(=O)[O-])c2ccc(C(=O)[O-])cc2)C(CC)CN(CC(=O)[O-])C(CC)CN1.[Mn+2] (stereo not drawn) | ICP-MS | BALB/c mouse, lung | intravenous, 0.05 mmol/kg, 5 min, without anaesthesia | – | Mn content | 2.46 ± 0.34 µg/g |
| OCCCN1CC[C@@H]2C[C@H]1c1cc(-c3ccc(C(F)(F)F)cc3)ccc12 | – | plasma | ip, concentration not given | – | t1/2 | 21.7 h |
| Cc1noc(C)c1Cn1cc(N2C(=O)CN(Cc3cccc(OS(=O)(=O)O)c3)C2=O)cn1 | – | rat Sprague-Dawley male, plasma | oral, 100 mg/kg of parent drug, 2 h | – | plasma concentration | 442 ± 81.9 ng/mL |
| CCN(CC)c1ccc2c(c1)O[B-]1(c3ccccc3C#N)OC(=O)C(c3ccccc3)=N[N+]1=C2 (stereo not drawn) | – | toluene | – | – | fluorescence quantum yield | 0.59 |
| COc1cccc(OC)c1-c1cc(C(=O)NC2(C(=O)O)C3CC4CC(C3)CC2C4)nn1-c1ccc(C(=O)N(C)CCCN(C)CCCN(C)C(=O)[C@H](CCCCNC(=O)[C@H](CC(C)C)NC(=O)C2OC2C(=O)O)NC(=O)CN2CCN(CC(=O)[O-])CCN(CC(=O)[O-])CCN(CC(=O)[O-])CC2)cc1C(C)C.[177Lu+3] (mixture of isomers) | – | mouse, HT-29 xenograft | 168 h post injection, biodistribution | relative to: tumour over kidney uptake | tumour-to-kidney ratio | 1.25 |

| Structure (SMILES) | test | system | setting | scale | quantity | result |
| --- | --- | --- | --- | --- | --- | --- |
| COc1ccc2c(c1)CN(C(=O)CCN1CCC(Cc3ccccc3)CC1)CCS2 | – | dog plasma | 7500 ng/mL | – | fu | 0.161 |
| O=C(Nc1ccc(C2CCCCC2)cc1)C1CC1 | liver microsome stability | mouse liver microsomes | 1 µM | – | hepatic clearance | 79 mL/min/kg |
| COc1ccc(Nc2nc(Nc3ccc(OCCOCCOCC[18F])cc3)ncc2Br)cc1 | – | ICR mice, S180 tumour | intravenous, 370 kBq, 30 min | relative to: tumour over muscle | uptake ratio | 1.57 |
| O=C(Nc1cnccc1-c1ccc([18F])nc1)c1ccnc(NC(=O)C2CC2)c1 | – | FVB/NJ mouse, both sexes, brain | intravenous, 4 min post-injection, added: P-gp inhibitor tariquidar 15 mg/kg iv | – | SUV | 0.25 ± 0.12 |
| CCN(CC)c1ccc2c(c1)O[B-]1(c3ccccc3C#N)OC(=O)C(c3ccccc3)=N[N+]1=C2CC(C)C (stereo not drawn) | – | toluene | – | – | fluorescence lifetime | 2.97 ns |
| O=C(Nc1ccc(C2CCCCC2)cc1)C1(N2CCOCC2)CC1 | liver microsome stability | human liver microsomes | 1 µM, without NADPH | – | hepatic clearance | 8.2 mL/min/kg |
| COC(=O)[C@@]1(C)C=C(C(=O)Nc2cccc(C(=O)Nc3ccc(Nc4nccc(-c5cccnc5)n4)c(C)c3)c2)C(=O)CC1 | – | Wistar rat male, blood plasma | 1 µM, 15 min | – | compound remaining | 72.8% |
| O=C(CN1CCOCC1)Nc1ccc([C@H]2[C@@H](F)[C@@H](F)C[C@@H](F)[C@H]2F)cc1 | liver microsome stability | rat liver microsomes | 1 µM | – | hepatic clearance | 13 mL/min/kg |
| Cc1nn(-c2nc3c(F)cc(F)cc3s2)c(O)c1C(c1ccc(C(F)(F)F)cc1)c1c(C)nn(-c2nc3c(F)cc(F)cc3s2)c1O | – | ICR mouse, plasma | intravenous, 5 mg/kg | – | Tlast | 24 h |
| F[C@@H]1[C@H](c2ccc(-c3cnc(N4CCOCC4)nc3)cc2)[C@H](F)[C@H](F)C[C@@H]1F | liver microsome stability | dog liver microsomes | 1 µM | – | hepatic clearance | 18 mL/min/kg |
| [2H]C([2H])([2H])Oc1cc2c(cc1OC([2H])([2H])[2H])[C@H]1C[C@@H](O)[C@H](CC(C)C)CN1CC2 | item: deuterated analyte | healthy human male, plasma | oral, 25 mg, median, [14C]-deutetrabenazine dosed | – | Tlag | 0.33 h |
| COc1cccc(OC)c1-c1cc(C(=O)NC2(C(=O)O)C3CC4CC(C3)CC2C4)nn1-c1ccc(C(=O)N(C)CCOCCOCCN(C)C(=O)[C@H](CCCCNC(=O)[C@H](CC(C)C)NC(=O)C2OC2C(=O)O)NC(=O)CN2CCN(CC(=O)[O-])CCN(CC(=O)[O-])CCN(CC(=O)[O-])CC2)cc1C(C)C.[177Lu+3] (mixture of isomers) | – | mouse HT-29 xenograft, large intestine | 168 h post injection, biodistribution | – | tissue uptake | 0.056 %ID/g |
| Cc1cc(C)n(CCN(CCN)CCCCCCNC(=O)[C@@H](N)Cc2c[nH]c3ccccc23)n1.[99Tc+].[C-]#[O+].[C-]#[O+].[C-]#[O+] | – | BALB/c nude mice A549 xenograft | intravenous, 4 h | – | excretion | 30.5 % injected activity |
| O=C(c1ccc(-c2ccccc2)cc1)N1CCCCC1 | metabolic stability | human, liver microsomes | 2 µM, 7 min, pH 7.4 | – | compound remaining | 100% |
| Cc1ccc(OCC(=O)N(Cc2cccs2)c2ccn[nH]2)cc1 | – | pooled dog liver microsomes | 10 µM, 10 min | relative to: time 0 | remaining compound | 67.3% |
| CC(=O)Nc1ccc([C@H]2[C@@H](F)[C@@H](F)C[C@@H](F)[C@H]2F)cc1 | hepatocyte stability | cryopreserved mouse hepatocytes | 1 µM | – | hepatic clearance | 78 mL/min/kg |
| CC(C)=CCC1=C([O-])C(=O)c2ccccc2C1=O.CC(C)=CCC1=C([O-])C(=O)c2ccccc2C1=O.Cc1cc2cccnc2c2ncccc12.O.[Cu+2] | cyclic voltammetry | CH2Cl2, Bu4NPF6 | 0.1 mM | relative to: Ag/AgCl sat. KOH | Epc2 cathodic peak potential | 0.02 V |
| CC[C@H](C)[C@@H]1NC(=O)[C@H](Cc2ccc(O)cc2)NC(=O)CCCSC[C@@H](C(=O)N(CC(=O)N[C@@H](CC(C)C)C(=O)NCC(N)=O)Cc2ccc(F)cc2)NC(=O)[C@H](CC(N)=O)NC(=O)[C@H](CCC(N)=O)NC1=O | – | human | intranasal, 400 µg single dose | – | AE leading to discontinuation | 0% |
| C=Cc1ccccc1[B-]12OC(=O)C(c3ccccc3)=N[N+]1=C(C)c1ccc(N(CC)CC)cc1O2 (stereo not drawn) | – | toluene | – | – | fluorescence quantum yield | 0.5 |
| COc1cccc(OC)c1-c1cc(C(=O)NC2(C(=O)O)C3CC4CC(C3)CC2C4)nn1-c1ccc(C(=O)N(C)CCOCCN(C)C(=O)[C@H](CCCCNC(=O)[C@H](CC(C)C)NC(=O)C2OC2C(=O)O)NC(=O)CN2CCN(CC(=O)[O-])CCN(CC(=O)[O-])CCN(CC(=O)[O-])CC2)cc1C(C)C.[177Lu+3] (mixture of isomers) | – | mouse, HT-29 xenograft | 4 h post injection, biodistribution | relative to: tumour over blood uptake | tumour-to-blood ratio | 2.6 |
| CN1CCC[C@]1(C)/C=C/S(=O)(=O)NC(=O)Nc1c2c(cc3c1CCC3)CCC2 | item: laboratory investigations | human | oral, 12.5 mg twice daily, 14 days, multiple ascending dose | – | subjects with adverse event | 16.7% |
| CC(C)c1nc(N(C)S(C)(=O)=O)nc(-c2ccc(F)cc2)c1/C=C/[C@@H](O)C[C@@H](O)CC(=O)O | – | human | oral, dose not given, added: omaveloxolone | relative to: substrate alone | AUC(0-inf) decrease | 30% |
| C=C1C[C@]2(C(=O)OC)C=C(C(=O)Nc3cccc(C(=O)Nc4ccc(Nc5nccc(-c6cccnc6)n5)c(C)c4)c3)C(=O)[C@H]1C2 | – | Wistar rat, male, plasma | 10 µM, 30 min | – | compound remaining | 1.03% and 1.85% |
| C/C(N)=N/C(=N\S(=O)(=O)c1ccc(C(F)(F)F)cc1)N1C[C@H](c2ccccc2)C(c2ccc(Cl)cc2)=N1 | – | C57BL/6 mouse, brain | intravenous, 10 mg/kg | – | Cmax | 83.6 ng/mL |

A few entries again:
| Structure (SMILES) | test | system | setting | scale | quantity | result |
| --- | --- | --- | --- | --- | --- | --- |
| O=C(Nc1cnccc1-c1ccc([18F])nc1)c1ccnc(NC(=O)C2CC2)c1 | – | FVB/NJ mouse, both sexes, brain | intravenous, 4 min post-injection, added: P-gp inhibitor tariquidar 15 mg/kg iv | – | SUV | 0.25 ± 0.12 |
| CC(=O)Nc1ccc([C@H]2[C@@H](F)[C@@H](F)C[C@@H](F)[C@H]2F)cc1 | hepatocyte stability | cryopreserved mouse hepatocytes | 1 µM | – | hepatic clearance | 78 mL/min/kg |
| CC(C)=CCC1=C([O-])C(=O)c2ccccc2C1=O.CC(C)=CCC1=C([O-])C(=O)c2ccccc2C1=O.Cc1cc2cccnc2c2ncccc12.O.[Cu+2] | cyclic voltammetry | CH2Cl2, Bu4NPF6 | 0.1 mM | relative to: Ag/AgCl sat. KOH | Epc2 cathodic peak potential | 0.02 V |
